# Results of several laboratories.
# Numbered parts are unrelated; each lists some results of a single study.

# Block 1
# Target: Sal-like protein 4, full length isoform A (SALL4, Homo sapiens, UniProt Q9UJQ4, residues 1-1053)
# UniProt Q9UJQ4, sequence (whole entry, looked up): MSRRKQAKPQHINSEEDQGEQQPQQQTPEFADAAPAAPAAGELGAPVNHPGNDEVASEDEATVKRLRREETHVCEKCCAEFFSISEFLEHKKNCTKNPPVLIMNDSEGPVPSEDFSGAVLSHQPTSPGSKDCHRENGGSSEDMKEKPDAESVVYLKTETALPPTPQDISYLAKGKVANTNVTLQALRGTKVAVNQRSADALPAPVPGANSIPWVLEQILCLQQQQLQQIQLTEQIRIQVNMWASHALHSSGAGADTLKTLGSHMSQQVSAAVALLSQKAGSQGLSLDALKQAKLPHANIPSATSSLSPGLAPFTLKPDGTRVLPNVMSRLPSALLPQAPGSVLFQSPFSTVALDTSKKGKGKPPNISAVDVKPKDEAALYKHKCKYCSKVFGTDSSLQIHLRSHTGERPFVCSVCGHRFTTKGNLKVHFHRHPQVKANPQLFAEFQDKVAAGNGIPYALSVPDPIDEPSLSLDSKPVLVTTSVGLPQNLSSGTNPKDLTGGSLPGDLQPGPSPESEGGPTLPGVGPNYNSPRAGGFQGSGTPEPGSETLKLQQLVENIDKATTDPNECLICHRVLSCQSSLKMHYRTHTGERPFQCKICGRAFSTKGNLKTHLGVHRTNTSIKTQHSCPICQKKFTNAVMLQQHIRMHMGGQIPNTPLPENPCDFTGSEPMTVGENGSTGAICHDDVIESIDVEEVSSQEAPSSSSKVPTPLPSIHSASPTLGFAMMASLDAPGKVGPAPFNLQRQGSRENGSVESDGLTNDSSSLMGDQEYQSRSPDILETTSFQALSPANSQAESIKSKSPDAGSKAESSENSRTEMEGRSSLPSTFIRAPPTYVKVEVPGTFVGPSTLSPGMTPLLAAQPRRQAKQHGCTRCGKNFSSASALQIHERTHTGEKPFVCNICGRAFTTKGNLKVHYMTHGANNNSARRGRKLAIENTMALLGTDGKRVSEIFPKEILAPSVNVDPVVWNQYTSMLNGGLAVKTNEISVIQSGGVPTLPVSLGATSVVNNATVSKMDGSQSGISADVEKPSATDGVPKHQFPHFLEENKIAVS
# Method: universal PBM
# Molecule type: double-stranded DNA, one strand shown
# Matrix: in vitro
# Tested at: 600 nM
# Notes: 8-mer, flanks averaged, mean of replicates
# Direction: higher = stronger binding
Strand,E-score
CGCTGAGA,-0.173
AGGAGTGC,-0.179
ATAGCCAA,0.136
ATTCGGGC,-0.164
TCTACCCA,-0.136
ACACGTGC,-0.135
GACTTTCA,0.0161
CCGCAGGC,-0.286
GCACGTGA,-0.0829
CCACTATC,-0.0613
GGCCCGAC,-0.376
GGTGGAGA,-0.303
GATTTAAC,0.0844
CGGATCGC,-0.193
CTATTGTA,0.34
AGGACGTC,-0.0851
CCAAGTGA,-0.0512
CGGGTAGC,-0.184
AAAAAATG,0.382
CCAGGACC,-0.269
TGTCTTAA,0.203
CCACTACA,-0.0854
AAGAGTCT,0.0142
TAGCTCAA,0.0254
ATAGTACC,0.0515

# Block 2
# Target: Histone acetyltransferase KAT6A, winged helix 1, GST fusion (KAT6A, Homo sapiens, UniProt Q92794, residues 1-85)
# Method: protein binding microarray
# Molecule type: double-stranded DNA, one strand shown
# Matrix: in vitro
# Tested at: not given
# Notes: 8-mer, flanks averaged, mean of 2 arrays, mostly near background
# Relative to: not given
# Direction: higher = stronger binding
# Residues (chain): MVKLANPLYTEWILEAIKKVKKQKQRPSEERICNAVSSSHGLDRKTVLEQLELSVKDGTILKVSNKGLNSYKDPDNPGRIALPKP
Strand,E-score
CGTGAGTC,0.0931
AACTACGC,0.236
TCGGTCCA,-0.168
AGTAGTGG,-0.111
CTATATGA,-0.0598
GGTAGGTA,-0.0754
GGTGTGGA,-0.213
GCCCGTCC,0.328
GGTACCAC,-0.179
CTACTTCC,-0.0802
AGCCTCGC,0.134
CACGCAGC,0.206
CTTCATAC,-0.0926
CGTGAACG,0.0717
TGGAGAAA,-0.0763
CCACTAGC,-0.0348

# Block 3
# Target: RING finger protein unkempt homolog, zinc fingers 1-6, SBP tag (UNK, Homo sapiens, UniProt Q9C0B0, residues 30-357)
# UniProt Q9C0B0, sequence (30-357, looked up): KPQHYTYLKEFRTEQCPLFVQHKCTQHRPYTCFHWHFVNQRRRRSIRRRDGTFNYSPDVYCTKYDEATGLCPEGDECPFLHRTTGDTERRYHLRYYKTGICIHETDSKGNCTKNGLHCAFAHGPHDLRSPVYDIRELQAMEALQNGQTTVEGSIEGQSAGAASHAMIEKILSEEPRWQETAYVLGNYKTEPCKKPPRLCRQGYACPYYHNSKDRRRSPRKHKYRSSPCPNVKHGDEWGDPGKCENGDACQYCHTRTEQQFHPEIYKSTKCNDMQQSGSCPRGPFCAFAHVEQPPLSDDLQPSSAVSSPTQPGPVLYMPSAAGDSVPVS
# Method: RNA Bind-n-Seq
# Molecule type: RNA
# Matrix: in vitro
# Tested at: 100 nM
# Notes: RNA with constant flanks, vertebrate orthologous sites, ends assumed
# Relative to: input RNA pool
# Direction: higher = stronger binding
# Shared flanks, not repeated: GGGAGUUCUACAGUCCGACGAUC … CAACAGAGGAUUGAGCAUCA
Strand,bound/input enrichment [ratio]
UUGGUUUAUUUUUUGUGUUGGUGUUUUUUGUUUUUUUGUUUUGUUUUUUGUUUUUGUCCUUUUGCUCAAGACUUUCUUUAAGGGCAACAUAAACUAAAAGUGAAACCUUAGGGAUUUUUU,1.05
CAUGGGGAUGCUCUGGGGAGUGGCUGGACACUCAGCAUUGCUUCAUUUAUGACUUUGACAAUAGAUAGGCUUCUGGGGGUUUUUGUUUCUGUUUUUUUAAUUUAAUGAUAUUAAAACUUA,0.504
GCAAUGAAAAAGCAGCCCUUCUCCCAGCCCCCCUUUCACUAGGAGAUACAACCAUUACCAUAGAAGAGCAAUUAAACUCGAUAAAUUUAUCUUUUCAGGAUGAUCCAGACUCCAGUACCA,1.13
CAUGUCCUUGCUACUGUGAUACUUAAAACAUGCACAGUACUCAUUUUUCCCAAAUGAUUCUAGUAAUUGCCUAGAAAUAUCUUUCUCUUACCUGUUAUUUAUCAAUUGUUCCCAGUAUUU,1.26
GAGCUAAAGGAGUUAGUGUCUUUAUUUUUGUAUCAAAGAUAAAGAUUAUUUUGAAAUUAUUAAGAUUUUUACACAACUCUGAAAUCUGUUGUUUUUGUAAACAAAUUGUUUGAUCGGGGG,0.166
AAUAAUGAAUAGUAUUAAAGAAACAUUCUUGUCUUCCUUUACCUUUAAUCCCCUAAUACCUAGUCUACUUUUUAAAUUUUCAGACUUCACUGCUUUUUGAAUUCAUAAUUCUAAUUUUCA,2.59
GUGACUUUGGGUGCCCGCAGAUACCGGGUGCAGGCCGUGUUAGGUUCGGUGUCGGCCAACUUUGUUCUCUCCUUCCGGAUCUGAAGCCUCUGCCGCAAACAUGAUCCGCCAUGCCAUCGG,0.221
CAAUAAAAUUGGAUGAAAUUUAUAAACAAUUCAAGGCAGUGACUUAAACUUCAUAAAGUAUUGUUGGUUUUUAAGUGGUUUACCUUUAUUUAAGCUGCUACCCUUUGUUAAAUAUGUGGA,0.25

# Block 4
# Target: BIRC6 UBC core domain (UniProt Q9NR09)
# Method: yeast two-hybrid
# Matrix: yeast
# Notes: mostly zero background
# Relative to: not given
# Direction: higher = stronger interaction
# B1: ANAPC11 RING domain (UniProt Q9NYG5); chain GICRMAFNGCCPDCKVPGDDCPLVWGQCSHCFHMHCILKWLHAQQVQQHCPMCRQEWKFKE
# B2: RNF166 RING domain (UniProt Q96A37); chain GDSGLEAQYTCPICLEVYHRPVAIGSCGHTFCGECLQPCLQVPSPLCPLCRLPFDPKKVDK
# B3: RNF183 RING domain (UniProt Q96D59); chain EQQGRELEAECPVCWNPFNNTFHTPKMLDCCHSFCVECLAHLSLVTPARRRLLCPLCRQPTVLASGQP
# B4: TRIM26 RING domain (UniProt Q12899); chain PLRSLEEEVTCSICLDYLRDPVTIDCGHVFCRSCTTDVRPISGSRPVCPLCKKPFKKENIRP
# Construct (chain): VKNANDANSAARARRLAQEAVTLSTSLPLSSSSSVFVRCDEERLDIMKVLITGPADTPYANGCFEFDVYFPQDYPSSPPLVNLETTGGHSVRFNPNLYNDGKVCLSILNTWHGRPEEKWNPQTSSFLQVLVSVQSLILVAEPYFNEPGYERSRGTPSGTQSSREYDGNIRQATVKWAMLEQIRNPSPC
Molecule,lacZ reporter activity
B1 (ANAPC11 RING domain),0
RYRQMEERITCPICIDSHIRLVFQCGHGACAPCGSALSACPICRQPIRDRIQIF (MIB2 RING domain (UniProt Q96AX9)),0
B2 (RNF166 RING domain),0
B3 (RNF183 RING domain),0
LDAASGHPLVCPLCHGQYERPCLLDCFHDFCTGCLRGRATDGRLSCPLCQHQTLVKGPSG (Rnf207 RING domain (UniProt Q3V3A7)),0
B4 (TRIM26 RING domain),0

# Block 5
# Target: Prothrombin, mature alpha-thrombin (F2, Homo sapiens, UniProt P00734)
# Method: aptamer microarray, sandwich
# Molecule type: DNA with 2'F-ANA
# Matrix: in vitro
# Tested at: 200 nM
# Notes: whole 15-mer aptamer, many near background
# Together with: Cy3 exosite-II aptamer, 400 nM
# Direction: higher = stronger binding
# Strand: GGTTGGTGTGGTTGG
Modification,mean fluorescence intensity [a.u.]
2'F-ANA at 1 2 4 5 6 8 9 10 13 14,48
2'F-ANA at 3 7 10 11 14,462
2'F-ANA at 2 3 8 9 15,797
2'F-ANA at 2 3 4 7 11 12 13,649
2'F-ANA at 2 3 4 7 8 9 10 14,201
2'F-ANA at 3 4 6 7 9 10 11 12,246
2'F-ANA at 3 5 6 7 9 10 11 12 13 14 15,74.2
2'F-ANA at 1 2 3 4 7 10 11 12,71.8
2'F-ANA at 1 6 10,53.7
2'F-ANA at 3 4 5 6 7 11 12 13 15,98
2'F-ANA at 3 4 7 9 10 11 13 15,248
2'F-ANA at 2 4 5 8 9 12 13,93.2
2'F-ANA at 1 2 7 11 13 14,52.9
2'F-ANA at 2 3 4 6 7 13,436
2'F-ANA at 2 5 6 7 8 9 10 11 12 13 14 15,53.9
2'F-ANA at 6 10 11 12 13 15,161
2'F-ANA at 1 6 7 10 11 15,51.9
2'F-ANA at 1 5 6 7 8 9 14,68.3
2'F-ANA at 1 2 4 7 8 10 11,52.9
2'F-ANA at 1 4 7 10 11 14 15,47.4
2'F-ANA at 2 3 8 9 12,1190
2'F-ANA at 1 2 3 4 9 11 13 15,111
2'F-ANA at 1 3 6 9 10 14 15,59.8
2'F-ANA at 1 4 5 6 7 12 14,44
2'F-ANA at 4 6 7 12 13,376
